Results pooled from the literature.
Cell line: RPMI-8226

S=C([S][Au-][P+](CCCCCC[P+]([Au-][S]C(=S)n1cccn1)(c1ccccc1)c1ccccc1)(c1ccccc1)c1ccccc1)n1cccn1 — log10 TGI (cell growth, NCI-60 screen; leukemia): -6.28
CCCN1CCN(c2ccc3[nH]c(-c4ccc5[nH]c(-c6cc(OC)c(OC)c(OC)c6)nc5c4)nc3c2)CC1 — growth percent (SRB; 10 µM, 48 h): 95.3%
Cc1cc(-c2ccccc2)n(-c2nc(-c3ccc(Cl)cc3)c3c(NC(=O)c4ccccc4)nnc-3[nH]2)n1 — cell growth (SRB; 10 µM, NCI60 single-dose screen; relative to: untreated): 96%
Nc1cccc2c1C(=O)N(C1CCC(=O)NC1=O)C2=O (stereo not shown) — surface marker level (flow cytometry, item: CD100; concentration not given; relative to: comparator compound alone): 197%
O=c1ccn(Cc2cn(-c3cc4ccccc4oc3=O)nn2)c(=O)[nH]1 — growth percentage (NCI60 single-dose screen; 10 µM): 103%
CCCN1CCN(c2ccc3nc(-c4ccc5nc(-c6cc(OC)ccc6OC)[nH]c5c4)[nH]c3c2)CC1 — growth percent (SRB; 10 µM, 48 h): -17.1%
C#C[C@@]1(O)[C@@H](CO)O[C@@H](n2ccc3c(N)ncnc32)[C@@H]1O — TGI (SRB; NCI-60 screen): > 100 µM
CCn1cc(-c2cc(Cn3ccnc3)cc3c2CCN([C@H](c2cc(OC)ccn2)C2CC2)C3=O)c(C(F)(F)F)n1 — EC50 (cell growth, inhibitor; 120 h): 27.4 µM
O=c1ccn(Cc2cn(-c3c4ccccc4nc4ccccc34)nn2)c(=O)[nH]1 — growth percentage (NCI60 single-dose screen; 10 µM): 87.3%
CN1CCN(c2ccc3[nH]c(-c4ccc5[nH]c(-c6ccc(C(F)(F)F)cc6)nc5c4)nc3c2)CC1 — growth percent (SRB; 10 µM, 48 h): -9.04%
COc1cnc2cccc(N3CCc4c(cc(Cn5ccnc5C)cc4-c4cn(C)nc4C(F)(F)F)C3=O)c2c1 — EC50 (cell growth, inhibitor; 120 h): 3.51 µM
C#C[C@@]1(O)[C@@H](CO)O[C@@H](n2cc(F)c3c(N)ncnc32)[C@@H]1O — TGI (SRB; NCI-60 screen): 1.98 µM
O=C1NCCc2[nH]c(-c3ccncc3)cc21 — IC50 (cytotoxicity, MTS; NCI60 panel; multiple myeloma): > 10 µM
COc1ccc(OC)c(-c2nc3ccc(-c4nc5ccc(N6CCN(C)CC6)cc5[nH]4)cc3[nH]2)c1 — growth percent (SRB; 10 µM, 48 h): 89.2%
Cn1cncc1C1=CN(c2ncnc3[nH]cnc23)CCS1 — GI50 (leukemia): 17.8 µM
CC(C)(C)NC(=O)C[C@H](NC(=O)C(=O)c1c[nH]c2ccccc12)C(=O)NCc1cccc(B(O)O)c1 — EC10 (cell viability, CellTiter-Glo; 72 h): 0.5 µM
CCCCN1CCN(c2ccc3[nH]c(-c4ccc5[nH]c(-c6cc(OC)c(OC)c(OC)c6)nc5c4)nc3c2)CC1 — growth percent (SRB; 10 µM, 48 h): 55.9%
Cc1cc(=O)[nH]n1-c1nc(-c2ccc(Cl)cc2)c2c(NC(=O)c3ccccc3)nnc-2[nH]1 — cell growth (SRB; 10 µM, NCI60 single-dose screen; relative to: untreated): 89.1%
CCCCN1CCN(c2ccc3nc(-c4ccc5nc(-c6cc(OC)ccc6OC)[nH]c5c4)[nH]c3c2)CC1 — growth percent (SRB; 10 µM, 48 h): 54.9%
O=C(Nc1nnc2[nH]c(=S)[nH]c(-c3ccc(Cl)cc3)c1-2)c1ccccc1 — cell growth (SRB; 10 µM, NCI60 single-dose screen; relative to: untreated): 96.3%
O=C1NC(c2ccccc2)(c2ccccc2)C(=O)N1Cc1cn(-c2cc3ccccc3oc2=O)nn1 — growth percentage (NCI60 single-dose screen; 10 µM): 85.8%
O=C(Nc1nnc2n3c(=S)[nH][nH]c3nc(-c3ccc(Cl)cc3)c1-2)c1ccccc1 — cell growth (SRB; 10 µM, NCI60 single-dose screen; relative to: untreated): 92%
Cc1cc(=O)[nH]c(=O)n1Cc1cn(-c2c3ccccc3nc3ccccc23)nn1 — growth percentage (NCI60 single-dose screen; 10 µM): 55.5%
CSc1nc(-c2ccc(Cl)cc2)c2c(NC(=O)c3ccccc3)nnc-2[nH]1 — cell growth (SRB; 10 µM, NCI60 single-dose screen; relative to: untreated): 91.8%
Cc1cccc(-c2[nH]c(CNc3ccccc3F)nc2-c2ccc3ncnn3c2)n1 — surface marker level (flow cytometry, item: CD282; concentration not given; relative to: comparator compound alone): 157%
